Results from different studies.
Compare with care: the assays were run in different laboratories. “And” joins repeats or separate records; there may be more than shown. ± gives the spread as reported.
PPARG: Peroxisome proliferator-activated receptor gamma (PPARG, Homo sapiens, UniProt P37231)
UniProt P37231, sequence (whole entry, looked up): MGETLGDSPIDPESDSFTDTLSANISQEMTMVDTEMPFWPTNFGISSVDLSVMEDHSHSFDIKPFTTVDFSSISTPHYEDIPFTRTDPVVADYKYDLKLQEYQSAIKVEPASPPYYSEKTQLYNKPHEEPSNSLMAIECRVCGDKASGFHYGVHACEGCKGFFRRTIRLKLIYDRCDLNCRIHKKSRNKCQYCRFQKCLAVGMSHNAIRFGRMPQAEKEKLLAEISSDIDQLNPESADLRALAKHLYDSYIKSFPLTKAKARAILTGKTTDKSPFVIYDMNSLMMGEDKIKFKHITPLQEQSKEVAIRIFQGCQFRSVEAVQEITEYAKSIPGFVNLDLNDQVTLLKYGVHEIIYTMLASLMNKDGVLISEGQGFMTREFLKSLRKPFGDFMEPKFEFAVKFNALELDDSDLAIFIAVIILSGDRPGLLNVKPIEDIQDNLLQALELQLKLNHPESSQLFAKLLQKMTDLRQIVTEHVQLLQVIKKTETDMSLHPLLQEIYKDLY
PPM1D: Protein phosphatase 1D (PPM1D, Homo sapiens, UniProt O15297)
UniProt O15297, sequence (whole entry, looked up): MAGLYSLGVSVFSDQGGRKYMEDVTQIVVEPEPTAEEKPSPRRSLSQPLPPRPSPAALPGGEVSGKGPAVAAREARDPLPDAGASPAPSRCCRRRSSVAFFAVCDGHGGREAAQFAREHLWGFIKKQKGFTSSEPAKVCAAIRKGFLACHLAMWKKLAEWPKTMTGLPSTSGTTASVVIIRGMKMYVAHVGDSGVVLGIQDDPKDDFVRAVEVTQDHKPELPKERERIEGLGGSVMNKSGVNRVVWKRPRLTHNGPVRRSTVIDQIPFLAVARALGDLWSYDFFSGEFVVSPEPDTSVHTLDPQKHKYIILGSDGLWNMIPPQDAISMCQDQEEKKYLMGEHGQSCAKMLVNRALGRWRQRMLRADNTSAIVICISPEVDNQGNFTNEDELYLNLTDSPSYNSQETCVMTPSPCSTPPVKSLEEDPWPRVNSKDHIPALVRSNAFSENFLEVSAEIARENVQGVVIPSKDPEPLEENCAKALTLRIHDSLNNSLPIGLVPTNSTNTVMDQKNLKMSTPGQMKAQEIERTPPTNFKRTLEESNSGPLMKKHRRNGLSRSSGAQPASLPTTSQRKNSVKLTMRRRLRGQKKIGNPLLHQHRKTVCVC
RMS3 S96C: RMS3 (Lathyrus oleraceus, UniProt A0A109QYD3, S96C)
UniProt A0A109QYD3, sequence (whole entry, unmodified, looked up): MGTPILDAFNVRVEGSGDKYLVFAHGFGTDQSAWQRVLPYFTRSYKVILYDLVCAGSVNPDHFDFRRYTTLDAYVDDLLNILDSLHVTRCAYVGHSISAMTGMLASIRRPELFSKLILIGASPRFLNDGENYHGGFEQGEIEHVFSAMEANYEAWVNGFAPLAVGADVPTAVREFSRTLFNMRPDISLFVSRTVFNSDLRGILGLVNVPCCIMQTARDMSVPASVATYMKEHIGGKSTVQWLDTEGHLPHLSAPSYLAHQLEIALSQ
TMEM97: Sigma intracellular receptor 2 (TMEM97, Homo sapiens, UniProt Q5BJF2)
UniProt Q9UM07, sequence (whole entry, looked up): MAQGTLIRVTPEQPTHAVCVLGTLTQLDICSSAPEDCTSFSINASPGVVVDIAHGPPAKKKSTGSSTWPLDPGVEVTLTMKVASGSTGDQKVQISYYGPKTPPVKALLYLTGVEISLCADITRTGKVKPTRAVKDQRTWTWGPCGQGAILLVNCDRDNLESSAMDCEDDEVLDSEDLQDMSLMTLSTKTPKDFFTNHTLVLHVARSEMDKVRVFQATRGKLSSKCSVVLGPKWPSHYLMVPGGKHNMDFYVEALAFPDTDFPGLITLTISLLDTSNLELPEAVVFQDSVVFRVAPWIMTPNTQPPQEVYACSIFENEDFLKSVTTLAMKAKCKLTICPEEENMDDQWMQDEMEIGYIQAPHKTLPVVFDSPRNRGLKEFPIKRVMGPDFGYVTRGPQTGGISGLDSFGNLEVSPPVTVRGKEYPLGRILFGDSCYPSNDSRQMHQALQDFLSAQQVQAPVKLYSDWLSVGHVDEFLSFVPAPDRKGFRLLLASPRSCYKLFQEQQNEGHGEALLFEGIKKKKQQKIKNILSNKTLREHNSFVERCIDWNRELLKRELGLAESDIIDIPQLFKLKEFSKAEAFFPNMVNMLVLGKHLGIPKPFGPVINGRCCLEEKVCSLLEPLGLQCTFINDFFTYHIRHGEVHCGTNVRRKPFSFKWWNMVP
UniProt Q9SZU7, sequence (whole entry, unmodified, looked up): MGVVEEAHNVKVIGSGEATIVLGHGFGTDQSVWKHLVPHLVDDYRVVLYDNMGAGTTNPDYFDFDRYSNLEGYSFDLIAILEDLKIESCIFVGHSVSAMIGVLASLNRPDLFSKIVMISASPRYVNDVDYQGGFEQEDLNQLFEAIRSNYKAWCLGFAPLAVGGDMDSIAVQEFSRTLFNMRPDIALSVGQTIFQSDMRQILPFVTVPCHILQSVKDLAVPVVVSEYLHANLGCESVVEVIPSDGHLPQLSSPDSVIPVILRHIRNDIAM
UniProt Q5BJF2, sequence (whole entry, looked up): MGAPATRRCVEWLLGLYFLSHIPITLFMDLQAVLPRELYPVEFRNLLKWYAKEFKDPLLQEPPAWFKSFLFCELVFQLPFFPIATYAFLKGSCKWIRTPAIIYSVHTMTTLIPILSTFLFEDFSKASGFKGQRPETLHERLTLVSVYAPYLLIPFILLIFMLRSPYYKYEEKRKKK
UniProt P08191, sequence (whole entry, looked up): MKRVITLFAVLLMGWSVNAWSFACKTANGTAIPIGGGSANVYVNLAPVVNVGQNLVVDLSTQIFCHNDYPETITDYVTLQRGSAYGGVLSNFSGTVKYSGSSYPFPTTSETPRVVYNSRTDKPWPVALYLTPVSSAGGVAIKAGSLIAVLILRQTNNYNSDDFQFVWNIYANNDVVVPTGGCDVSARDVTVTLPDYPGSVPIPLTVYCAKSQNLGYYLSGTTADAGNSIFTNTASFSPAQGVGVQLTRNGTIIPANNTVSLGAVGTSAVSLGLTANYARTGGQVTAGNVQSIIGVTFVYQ
UniProt P46734, sequence (whole entry, looked up): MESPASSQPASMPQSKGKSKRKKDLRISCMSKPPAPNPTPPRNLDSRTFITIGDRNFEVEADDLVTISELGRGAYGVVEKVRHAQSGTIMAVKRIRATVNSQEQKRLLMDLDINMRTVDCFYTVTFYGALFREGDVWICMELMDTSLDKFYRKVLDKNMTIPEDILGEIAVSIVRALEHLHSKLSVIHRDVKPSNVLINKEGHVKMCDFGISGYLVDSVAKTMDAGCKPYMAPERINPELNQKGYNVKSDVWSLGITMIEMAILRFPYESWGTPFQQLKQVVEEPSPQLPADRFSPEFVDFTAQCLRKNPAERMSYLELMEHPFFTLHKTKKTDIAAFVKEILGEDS
UniProt P51531, sequence (whole entry, looked up): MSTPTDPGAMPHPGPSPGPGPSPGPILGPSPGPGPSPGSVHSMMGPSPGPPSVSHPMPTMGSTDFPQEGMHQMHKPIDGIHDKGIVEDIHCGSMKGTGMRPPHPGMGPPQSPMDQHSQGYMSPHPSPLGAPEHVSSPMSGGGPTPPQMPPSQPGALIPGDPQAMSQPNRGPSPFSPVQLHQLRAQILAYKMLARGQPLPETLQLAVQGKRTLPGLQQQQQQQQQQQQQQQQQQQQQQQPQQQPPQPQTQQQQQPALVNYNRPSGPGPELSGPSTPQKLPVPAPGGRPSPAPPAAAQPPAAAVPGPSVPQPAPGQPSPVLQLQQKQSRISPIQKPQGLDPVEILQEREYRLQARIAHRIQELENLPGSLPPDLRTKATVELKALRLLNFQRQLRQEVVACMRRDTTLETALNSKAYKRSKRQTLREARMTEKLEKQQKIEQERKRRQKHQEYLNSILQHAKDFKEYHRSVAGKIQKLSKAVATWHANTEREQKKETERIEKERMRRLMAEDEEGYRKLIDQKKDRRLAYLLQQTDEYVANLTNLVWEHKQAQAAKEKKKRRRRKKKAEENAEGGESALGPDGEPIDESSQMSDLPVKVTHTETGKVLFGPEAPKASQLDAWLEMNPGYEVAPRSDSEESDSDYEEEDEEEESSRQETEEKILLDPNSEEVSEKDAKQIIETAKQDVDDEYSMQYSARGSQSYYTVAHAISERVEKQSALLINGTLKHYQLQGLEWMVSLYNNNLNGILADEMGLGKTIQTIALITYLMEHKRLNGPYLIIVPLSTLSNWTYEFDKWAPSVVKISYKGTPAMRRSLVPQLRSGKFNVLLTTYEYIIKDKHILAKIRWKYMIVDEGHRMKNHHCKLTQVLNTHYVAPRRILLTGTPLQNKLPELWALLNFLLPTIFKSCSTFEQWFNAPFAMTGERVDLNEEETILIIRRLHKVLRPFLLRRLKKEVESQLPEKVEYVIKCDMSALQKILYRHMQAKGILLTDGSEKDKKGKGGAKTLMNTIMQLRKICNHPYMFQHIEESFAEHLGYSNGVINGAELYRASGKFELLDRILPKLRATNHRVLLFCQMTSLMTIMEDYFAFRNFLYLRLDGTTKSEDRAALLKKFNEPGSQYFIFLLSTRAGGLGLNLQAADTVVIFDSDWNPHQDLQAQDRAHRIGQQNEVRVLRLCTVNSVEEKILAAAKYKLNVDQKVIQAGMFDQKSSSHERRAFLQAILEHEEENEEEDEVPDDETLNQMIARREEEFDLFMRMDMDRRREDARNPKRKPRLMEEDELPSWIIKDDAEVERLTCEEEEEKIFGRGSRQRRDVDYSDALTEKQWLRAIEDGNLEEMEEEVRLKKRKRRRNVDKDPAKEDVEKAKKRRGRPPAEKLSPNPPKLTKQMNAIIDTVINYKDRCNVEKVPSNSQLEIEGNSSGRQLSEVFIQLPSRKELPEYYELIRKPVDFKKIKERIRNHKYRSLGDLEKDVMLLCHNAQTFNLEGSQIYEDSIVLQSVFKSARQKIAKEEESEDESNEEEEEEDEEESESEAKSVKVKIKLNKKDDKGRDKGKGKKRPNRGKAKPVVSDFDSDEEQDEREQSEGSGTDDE
UniProt Q2FIT4, sequence (whole entry, looked up): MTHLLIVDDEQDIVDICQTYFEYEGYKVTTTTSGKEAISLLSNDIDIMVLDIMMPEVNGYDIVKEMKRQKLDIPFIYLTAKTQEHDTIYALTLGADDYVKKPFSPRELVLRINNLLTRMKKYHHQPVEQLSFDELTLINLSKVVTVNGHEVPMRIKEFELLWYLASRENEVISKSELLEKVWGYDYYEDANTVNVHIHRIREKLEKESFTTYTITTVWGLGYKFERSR

SMILES | target | assay | system | setting | Kd
Nc1nnc(-c2ccccc2O)cc1N1CC2CCC(C1)N2c1ccnc(C#CCCN2CCCCCC2)c1 | SMARCA2 (Homo sapiens, UniProt P51531) | binding, NanoBRET tracer displacement | permeabilized HEK293 |  | 29 ± 6.7 nM
COc1ccc(-c2ccccc2)cc1NS(=O)(=O)c1cc(Cl)cc(Cl)c1O | Triggering receptor expressed on myeloid cells 2 (Homo sapiens, UniProt Q9NZC2) | binding, SPR |  |  | 47800 nM
CC(C)[C@H]1C(=O)N[C@H](CO)Cc2ccc(OCc3ccccc3)cc2N1C | protein kinase C C1 domain | binding, microscale thermophoresis and BLI |  |  | 230 nM
Cc1c(Cc2cccc(OC(C)(C)C(=O)O)c2)c2ccc(C(=O)N[C@@H](C)c3cc(C(C)(C)C)ccc3F)cc2n1CC(C)C | PPARG | ligand displacement, TR-FRET |  |  | 0.697 nM
O=C(O)CCC(=O)c1cccc(NS(=O)(=O)c2c[nH]c3ncccc23)c1 | Ubiquitin carboxyl-terminal hydrolase 20, ZnF-UBD domain (USP20, Homo sapiens, UniProt Q9Y2K6) |  |  |  | 706000 nM
NCCNC(=O)[C@H](CC1CCCCC1)NC(=O)c1ccc(CNc2ccccn2)s1 | PPM1D | binding |  |  | 280 nM
Cc1c(Cc2ccc(Cl)c(O[C@H](C)C(=O)O)c2)c2ccc(C(=O)N[C@@H](C)c3ccc(C(C)(C)C)cc3)cc2n1CC(C)C | PPARG | ligand displacement, TR-FRET |  |  | 0.155 nM
COc1ccc(-c2oc3c(CC=C(C)C)c(O)cc(O)c3c(=O)c2O[C@@H]2O[C@@H](C)[C@H](O)[C@@H](O)[C@H]2O)cc1 | Response regulator SaeR (saeR, Staphylococcus aureus, UniProt Q2FIT4) | binding |  |  | 197 nM
CN(C)c1ccc2c(-c3cc(C(=O)NCCNC(=O)[C@H](CC4CCCCC4)NC(=O)c4ccc(CNc5ccccn5)s4)ccc3C(=O)O)c3ccc(=[N+](C)C)cc-3oc2c1 | PPM1D | cell-free assay, FP |  |  | 193 nM
Cc1c(Cc2ccc(Cl)c(O[C@H](C)C(=O)O)c2)c2ccc(C(=O)N[C@@H](C)c3ccc(C(C)(C)C)cc3)cc2n1C | PPARG | ligand displacement, TR-FRET |  |  | 0.781 nM
CC1=C(C)[C@@H](Oc2c(F)cc3c(C)cc(=O)oc3c2F)OC1=O | RMS3 S96C | binding, fluorescence |  |  | 516000 nM
C[N+]1(C)CCCC1 | Chrnd/Chrna1/Chrne (Mus musculus, UniProt P02716+P04756+P20782, G173A/S470W) | single-channel kinetics |  | A chain side site | 194000 nM
Cc1c(C)n(-c2ccc(Br)cc2)c2ncnc(N3CCC(C(N)C(=O)N4CCCC4)CC3)c12 (stereo not drawn) | PADI4 (Homo sapiens, UniProt Q9UM07) | surface plasmon resonance |  |  | 3810 nM and 3560 nM and 1930 nM and 2400 nM
Cc1c(Cc2cc(Cl)cc(OC(C)C(=O)O)c2)c2ccc(C(=O)NC(C)c3ccc(C(C)(C)C)cc3)cc2n1CC1CC1 (stereo not drawn) | PPARG | ligand displacement, TR-FRET |  |  | 9.44 nM
Cc1c[nH]c2nccc(-c3ccc(C(=O)N[C@@H]4c5c(F)cc(C(F)F)cc5C[C@@H]4O)cn3)c12 | MAP2K3 (Homo sapiens, UniProt P46734) | binding, competition with immobilised ligand |  |  | 110 nM
CCCCCCCO[C@H]1CO[C@H](CO)[C@@H](O)[C@H](O)[C@@H]1O | Type 1 fimbrin D-mannose specific adhesin, lectin domain (fimH, Escherichia coli K-12, UniProt P08191) | binding, isothermal titration calorimetry |  | 25 °C, individual titrations | 264 nM and 276 nM
Cc1c(Cc2cccc(OC(C)(C)C(=O)O)c2)c2ccc(C(=O)N[C@@H](C)c3cccc(C(C)(C)C)c3)cc2n1CC(C)C | PPARG | ligand displacement, TR-FRET |  |  | 0.742 nM
CC(CC1CC2CCC1C2)Nc1nn2c(=O)ccnc2s1 (stereo not drawn) | PPM1D | binding |  |  | 5300 nM
Cn1ncc2cc(-c3cncc(Cl)c3N3CCC4(CCNC4=O)CC3)ccc21 | STK16 (Homo sapiens, UniProt O75716) | cell-free assay |  | lysate | 19300 nM
Cc1c(Cc2ccc(Cl)c(OC(C)C(=O)O)c2)c2ccc(C(=O)NC(C)c3ccc(C(C)(C)C)cc3)cc2n1CC1CCC1 (stereo not drawn) | PPARG | ligand displacement, TR-FRET |  |  | 0.236 nM
CCC(C)n1c(C(=O)Nc2cnc(C(=O)NC)n(CC(C)C)c2=O)ncc(NC(=O)c2ncc(NC(=O)c3ccccc3)c(=O)n2CCc2ccc(OCc3ccccc3)cc2)c1=O (stereo not drawn) | Heat shock protein HSP 90-alpha, C-terminal domain (HSP90AA1, Homo sapiens, UniProt P07900) | binding, microscale thermophoresis, measured: C-terminal domain |  | added: labelled CTD 50 nM | 11700 ± 1000 nM
Cc1c(Cc2cccc(OC(C)(C)C(=O)O)c2)c2ccc(C(=O)N[C@@H](C)c3ccc(F)c(C(C)(C)C)c3)cc2n1CC(C)C | PPARG | ligand displacement, TR-FRET |  |  | 0.478 nM
N=C(N)NCCC[C@H](NC(=O)[C@H](Cc1ccc(O)cc1)NC(=O)CN)C(=O)N[C@@H](CCCNC(=N)N)C(=O)N[C@@H](CCCCN)C(=O)N[C@@H](Cc1ccccc1)C(=O)N[C@@H](Cc1c[nH]cn1)C(=O)N[C@@H](CCC(=O)O)C(=O)N[C@@H](CCCCN)C(=O)N[C@@H](Cc1c[nH]cn1)C(=O)N[C@@H](Cc1c[nH]cn1)C(=O)O | TMEM97 | SPR |  | pH 7.4, 25 °C | 9320 ± 2170 nM
C=CC(=O)N1C[C@H](C)N(c2nc(OC[C@@]34CCCN3C[C@H](F)C4)nc3c(F)c(-c4ccc(F)c5sc(N)c(C#N)c45)c(C(F)(F)F)cc23)C[C@H]1C | GTPase KRas, GppNHp-bound (KRAS, Homo sapiens, UniProt P01116, A146T) |  |  |  | 3320 nM and 3340 nM
N=C(N)NCCC[C@H](NC(=O)[C@H](Cc1ccc(O)cc1)NC(=O)CN)C(=O)N[C@@H](CCCNC(=N)N)C(=O)N[C@@H](CCCCN)C(=O)N[C@@H](Cc1ccccc1)C(=O)N[C@@H](Cc1c[nH]cn1)C(=O)N[C@@H](CCC(=O)O)C(=O)N[C@@H](CCCCN)C(=O)N[C@@H](Cc1c[nH]cn1)C(=O)N[C@@H](Cc1c[nH]cn1)C(=O)N[C@@H](CO)C(=O)N[C@@H](Cc1c[nH]cn1)C(=O)N[C@@H](CCCNC(=N)N)C(=O)N[C@@H](CCC(=O)O)C(=O)N[C@@H](Cc1ccccc1)C(=O)N1CCC[C@H]1C(=O)N[C@@H](Cc1ccccc1)C(=O)O | TMEM97 | SPR |  | pH 7.4, 25 °C | 4610 ± 340 nM
CC1=C[C@H](O/C=C2/C(=O)O[C@H]3c4ccccc4C[C@@H]23)OC1=O (racemic) | RMS3 S96C | binding, fluorescence |  |  | 148000 nM
N=C(N)NCCC[C@H](NC(=O)[C@H](Cc1ccc(O)cc1)NC(=O)CNC(=O)[C@H](Cc1c[nH]cn1)NC(=O)[C@H](Cc1c[nH]cn1)NC(=O)[C@H](CCCNC(=N)N)NC(=O)[C@H](CCCCN)NC(=O)[C@H](CCC(=O)O)NC(=O)[C@@H](N)Cc1c[nH]cn1)C(=O)N[C@@H](CCCNC(=N)N)C(=O)N[C@@H](CCCCN)C(=O)N[C@@H](Cc1ccccc1)C(=O)N[C@@H](Cc1c[nH]cn1)C(=O)N[C@@H](CCC(=O)O)C(=O)N[C@@H](CCCCN)C(=O)N[C@@H](Cc1c[nH]cn1)C(=O)N[C@@H](Cc1c[nH]cn1)C(=O)N[C@@H](CO)C(=O)N[C@@H](Cc1c[nH]cn1)C(=O)N[C@@H](CCCNC(=N)N)C(=O)N[C@@H](CCC(=O)O)C(=O)N[C@@H](Cc1ccccc1)C(=O)N1CCC[C@H]1C(=O)N[C@@H](Cc1ccccc1)C(=O)O | TMEM97 | SPR |  | pH 7.4, 25 °C | 1790 ± 2280 nM
Cc1c(Cc2cc(F)cc(OC(C)(C)C(=O)O)c2)c2ccc(C(=O)N[C@@H](C)c3ccc(C(C)(C)C)cc3)cc2n1CC1CCC1 | PPARG | ligand displacement, TR-FRET |  |  | 1.47 nM
N=C(N)NCCC[C@H](NC(=O)[C@H](Cc1ccc(O)cc1)NC(=O)CNC(=O)[C@H](Cc1c[nH]cn1)NC(=O)[C@H](Cc1c[nH]cn1)NC(=O)[C@H](CCCNC(=N)N)NC(=O)[C@H](CCCCN)NC(=O)[C@H](CCC(=O)O)NC(=O)[C@@H](N)Cc1c[nH]cn1)C(=O)N[C@@H](CCCNC(=N)N)C(=O)N[C@@H](CCCCN)C(=O)N[C@@H](Cc1ccccc1)C(=O)N[C@@H](Cc1c[nH]cn1)C(=O)N[C@@H](CCC(=O)O)C(=O)N[C@@H](CCCCN)C(=O)N[C@@H](Cc1c[nH]cn1)C(=O)N[C@@H](Cc1c[nH]cn1)C(=O)O | TMEM97 | SPR |  | pH 7.4, 25 °C | 2530 ± 1110 nM
Cc1cccc2c1N(C(=O)n1ccnn1)CC2 | KAI2 (Arabidopsis thaliana, UniProt Q9SZU7, F157A) | ITC |  | F157A mutant | 246000 nM and 424000 nM and 300000 nM

For quick reference, copied from above:
SMILES | target | assay | system | setting | Kd
CC1=C(C)[C@@H](Oc2c(F)cc3c(C)cc(=O)oc3c2F)OC1=O | RMS3 S96C | binding, fluorescence |  |  | 516000 nM
Cn1ncc2cc(-c3cncc(Cl)c3N3CCC4(CCNC4=O)CC3)ccc21 | STK16 (Homo sapiens, UniProt O75716) | cell-free assay |  | lysate | 19300 nM
